Experimental data from different studies.
Each line is one published result; not all experiments were run side by side. Values joined by “and” are separate records of one study, mostly repeats; a detail may differ. ± gives the spread as reported. Values after ≈ are worked out from the molar mass of the structure shown.
CYP1A2: Cytochrome P450 1A2 (CYP1A2, Homo sapiens, UniProt P05177)
UniProt P55211, sequence (whole entry, looked up): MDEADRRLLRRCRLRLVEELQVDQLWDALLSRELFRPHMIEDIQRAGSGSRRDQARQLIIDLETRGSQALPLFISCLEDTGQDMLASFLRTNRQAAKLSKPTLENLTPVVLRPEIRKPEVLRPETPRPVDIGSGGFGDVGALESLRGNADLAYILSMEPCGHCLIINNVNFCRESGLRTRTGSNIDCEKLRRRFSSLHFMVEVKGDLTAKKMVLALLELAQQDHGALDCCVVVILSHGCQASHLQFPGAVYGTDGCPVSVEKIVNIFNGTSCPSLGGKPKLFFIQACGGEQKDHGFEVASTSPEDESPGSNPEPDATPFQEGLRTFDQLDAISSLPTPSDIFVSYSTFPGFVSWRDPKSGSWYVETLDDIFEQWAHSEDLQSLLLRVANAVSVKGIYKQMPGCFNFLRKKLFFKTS
UniProt Q5S007, sequence (whole entry, looked up): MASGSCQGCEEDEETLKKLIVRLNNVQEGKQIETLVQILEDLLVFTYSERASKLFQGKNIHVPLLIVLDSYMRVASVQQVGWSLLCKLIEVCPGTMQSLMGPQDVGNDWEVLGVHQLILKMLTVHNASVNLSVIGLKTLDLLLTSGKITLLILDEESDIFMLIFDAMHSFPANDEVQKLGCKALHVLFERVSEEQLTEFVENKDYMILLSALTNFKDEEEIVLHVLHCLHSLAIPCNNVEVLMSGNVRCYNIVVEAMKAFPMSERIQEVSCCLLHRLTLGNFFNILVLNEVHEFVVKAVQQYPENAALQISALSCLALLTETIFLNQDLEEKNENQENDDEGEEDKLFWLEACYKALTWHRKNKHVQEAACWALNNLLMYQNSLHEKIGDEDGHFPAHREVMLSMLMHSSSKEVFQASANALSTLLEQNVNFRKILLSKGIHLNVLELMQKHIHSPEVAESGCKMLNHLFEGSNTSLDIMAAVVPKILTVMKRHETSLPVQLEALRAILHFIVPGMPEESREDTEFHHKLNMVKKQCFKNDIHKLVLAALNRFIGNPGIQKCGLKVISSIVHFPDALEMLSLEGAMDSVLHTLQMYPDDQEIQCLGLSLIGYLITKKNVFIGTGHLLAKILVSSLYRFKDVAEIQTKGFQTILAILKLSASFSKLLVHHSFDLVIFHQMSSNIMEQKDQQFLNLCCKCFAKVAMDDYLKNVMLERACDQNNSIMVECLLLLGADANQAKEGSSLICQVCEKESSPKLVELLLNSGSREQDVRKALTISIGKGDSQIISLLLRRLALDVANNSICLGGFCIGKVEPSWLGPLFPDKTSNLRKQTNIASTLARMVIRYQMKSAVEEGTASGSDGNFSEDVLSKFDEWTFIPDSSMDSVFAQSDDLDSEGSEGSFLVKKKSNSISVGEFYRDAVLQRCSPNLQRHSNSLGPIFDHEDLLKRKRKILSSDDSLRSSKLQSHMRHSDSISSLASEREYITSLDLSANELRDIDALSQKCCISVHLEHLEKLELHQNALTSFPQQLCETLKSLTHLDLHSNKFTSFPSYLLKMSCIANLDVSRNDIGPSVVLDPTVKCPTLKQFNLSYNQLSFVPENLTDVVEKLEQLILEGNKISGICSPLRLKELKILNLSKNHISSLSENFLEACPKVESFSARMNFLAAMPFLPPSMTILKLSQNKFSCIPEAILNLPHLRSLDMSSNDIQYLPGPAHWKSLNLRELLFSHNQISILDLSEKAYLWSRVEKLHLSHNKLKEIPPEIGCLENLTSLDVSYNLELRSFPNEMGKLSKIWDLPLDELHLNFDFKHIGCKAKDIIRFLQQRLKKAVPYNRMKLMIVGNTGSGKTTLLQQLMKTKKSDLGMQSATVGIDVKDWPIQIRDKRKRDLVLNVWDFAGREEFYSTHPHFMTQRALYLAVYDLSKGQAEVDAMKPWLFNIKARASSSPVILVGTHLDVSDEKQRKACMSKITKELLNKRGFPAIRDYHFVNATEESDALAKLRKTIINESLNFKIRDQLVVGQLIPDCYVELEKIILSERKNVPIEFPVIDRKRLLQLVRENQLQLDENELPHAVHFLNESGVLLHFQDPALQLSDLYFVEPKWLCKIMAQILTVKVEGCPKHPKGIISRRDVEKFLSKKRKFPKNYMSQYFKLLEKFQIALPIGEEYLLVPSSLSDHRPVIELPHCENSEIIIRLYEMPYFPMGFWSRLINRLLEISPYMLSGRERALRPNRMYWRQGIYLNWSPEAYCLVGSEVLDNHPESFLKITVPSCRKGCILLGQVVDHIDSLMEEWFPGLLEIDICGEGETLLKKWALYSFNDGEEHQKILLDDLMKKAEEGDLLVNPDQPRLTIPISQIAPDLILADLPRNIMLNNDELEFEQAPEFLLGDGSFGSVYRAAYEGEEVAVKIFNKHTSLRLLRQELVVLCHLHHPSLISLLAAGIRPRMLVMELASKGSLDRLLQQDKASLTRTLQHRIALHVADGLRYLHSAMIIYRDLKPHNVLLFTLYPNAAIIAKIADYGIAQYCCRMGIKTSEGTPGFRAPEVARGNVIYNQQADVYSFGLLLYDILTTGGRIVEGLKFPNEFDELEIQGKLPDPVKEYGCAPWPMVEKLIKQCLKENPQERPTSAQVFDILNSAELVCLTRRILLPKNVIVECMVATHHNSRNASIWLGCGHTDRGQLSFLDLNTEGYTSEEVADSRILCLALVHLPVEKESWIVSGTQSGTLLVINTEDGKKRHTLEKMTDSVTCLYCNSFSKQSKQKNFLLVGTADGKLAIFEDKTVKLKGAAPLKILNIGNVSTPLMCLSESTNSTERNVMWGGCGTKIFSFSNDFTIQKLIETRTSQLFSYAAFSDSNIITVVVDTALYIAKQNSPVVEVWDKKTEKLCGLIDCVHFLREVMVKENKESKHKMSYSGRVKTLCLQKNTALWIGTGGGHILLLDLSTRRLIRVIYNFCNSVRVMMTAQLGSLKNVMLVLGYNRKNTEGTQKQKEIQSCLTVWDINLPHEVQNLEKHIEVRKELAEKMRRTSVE
UniProt Q6P2M8, sequence (whole entry, looked up): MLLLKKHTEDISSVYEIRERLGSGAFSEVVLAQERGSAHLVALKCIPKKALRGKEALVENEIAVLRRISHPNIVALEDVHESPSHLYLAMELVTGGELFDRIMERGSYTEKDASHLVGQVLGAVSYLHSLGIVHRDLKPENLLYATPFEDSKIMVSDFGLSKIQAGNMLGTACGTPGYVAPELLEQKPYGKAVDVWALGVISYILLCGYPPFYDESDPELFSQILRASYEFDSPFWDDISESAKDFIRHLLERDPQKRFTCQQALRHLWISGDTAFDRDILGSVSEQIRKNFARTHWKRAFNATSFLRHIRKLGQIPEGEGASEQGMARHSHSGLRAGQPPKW
UniProt Q9UQM7, sequence (whole entry, looked up): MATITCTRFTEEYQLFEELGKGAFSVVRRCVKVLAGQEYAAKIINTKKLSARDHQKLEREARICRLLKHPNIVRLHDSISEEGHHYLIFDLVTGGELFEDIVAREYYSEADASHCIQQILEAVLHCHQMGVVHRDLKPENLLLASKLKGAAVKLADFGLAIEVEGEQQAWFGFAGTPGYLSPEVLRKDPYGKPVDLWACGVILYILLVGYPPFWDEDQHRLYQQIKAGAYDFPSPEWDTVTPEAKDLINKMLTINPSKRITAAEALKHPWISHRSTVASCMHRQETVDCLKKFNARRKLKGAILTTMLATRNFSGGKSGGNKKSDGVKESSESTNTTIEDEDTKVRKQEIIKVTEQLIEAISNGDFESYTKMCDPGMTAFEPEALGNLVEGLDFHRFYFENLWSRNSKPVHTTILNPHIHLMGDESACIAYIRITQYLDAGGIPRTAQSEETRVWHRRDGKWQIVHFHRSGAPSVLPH
UniProt Q15418, sequence (whole entry, looked up): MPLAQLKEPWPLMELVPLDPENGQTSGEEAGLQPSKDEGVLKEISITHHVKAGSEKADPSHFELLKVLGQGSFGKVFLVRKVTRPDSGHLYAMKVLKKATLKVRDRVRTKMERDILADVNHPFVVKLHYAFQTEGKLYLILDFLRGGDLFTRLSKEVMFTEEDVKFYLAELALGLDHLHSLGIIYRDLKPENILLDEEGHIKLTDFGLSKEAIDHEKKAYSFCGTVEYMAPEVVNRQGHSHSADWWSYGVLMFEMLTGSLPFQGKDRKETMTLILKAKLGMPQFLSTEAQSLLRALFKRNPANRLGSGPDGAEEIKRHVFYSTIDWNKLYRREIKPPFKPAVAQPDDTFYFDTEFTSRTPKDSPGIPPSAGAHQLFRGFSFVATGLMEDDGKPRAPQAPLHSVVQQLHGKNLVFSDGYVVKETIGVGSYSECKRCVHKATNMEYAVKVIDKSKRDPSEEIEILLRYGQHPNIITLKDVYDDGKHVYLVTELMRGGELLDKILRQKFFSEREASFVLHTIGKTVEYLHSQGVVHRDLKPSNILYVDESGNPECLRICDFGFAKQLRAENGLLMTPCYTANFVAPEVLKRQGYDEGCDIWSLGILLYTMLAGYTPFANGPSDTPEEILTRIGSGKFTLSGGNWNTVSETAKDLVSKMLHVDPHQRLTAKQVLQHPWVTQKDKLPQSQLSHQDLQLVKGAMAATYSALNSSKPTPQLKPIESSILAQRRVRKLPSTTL
UniProt Q96FL8, sequence (whole entry, looked up): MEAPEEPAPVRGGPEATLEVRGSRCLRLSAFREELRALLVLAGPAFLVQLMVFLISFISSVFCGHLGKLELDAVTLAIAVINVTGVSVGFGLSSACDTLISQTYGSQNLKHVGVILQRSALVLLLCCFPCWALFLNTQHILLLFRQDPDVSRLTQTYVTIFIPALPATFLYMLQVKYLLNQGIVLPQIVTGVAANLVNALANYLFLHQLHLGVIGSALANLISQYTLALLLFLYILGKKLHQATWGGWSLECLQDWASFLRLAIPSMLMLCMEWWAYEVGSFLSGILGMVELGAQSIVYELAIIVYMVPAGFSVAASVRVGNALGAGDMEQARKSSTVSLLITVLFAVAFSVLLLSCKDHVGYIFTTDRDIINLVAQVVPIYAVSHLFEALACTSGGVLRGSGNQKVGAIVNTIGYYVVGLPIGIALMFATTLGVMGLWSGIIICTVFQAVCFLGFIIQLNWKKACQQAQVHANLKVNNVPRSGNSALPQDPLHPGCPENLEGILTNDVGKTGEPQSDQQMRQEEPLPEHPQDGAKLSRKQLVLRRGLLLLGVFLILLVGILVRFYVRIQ

For `O=C1NC2(CC2)COc2ncc(F)cc2[C@H]2COCCN2c2ccn3ncc1c3n2`, the potassium was 4.21 ± 0.47 mmol/L (Sprague-Dawley rat, female, serum; oral, 10 mg/kg/day, 4 weeks daily, end of treatment).
The inhibition of `CC(C)[C@H]1NC(=O)C[C@H]2/C=C/CCSSC[C@@H](NC1=O)C(=O)N[C@H](Cc1cccc3ccccc13)C(=O)NCC(=O)O2` is reported as 3.2% (Mitogen-activated protein kinase kinase kinase 5 (MAP3K5, Homo sapiens, UniProt Q99683); enzyme activity, inhibitor; 10 µM).
`CN(C)c1ccc(-c2nc3ccccc3n2CCCOc2ccccc2)cc1` has an IC50 of greater than 10 µM (HEK-293T; cytotoxicity; 3 days).
`C[C@H]1[C@H](OC(=O)CCC(=O)OCc2nnn(-c3cc4ccc(O)cc4oc3=O)c2COC(=O)CCC(=O)O[C@@H]2O[C@@H]3O[C@@]4(C)CC[C@H]5[C@H](C)CC[C@@H]([C@H]2C)[C@@]35OO4)O[C@@H]2O[C@@]3(C)CC[C@H]4[C@H](C)CC[C@@H]1[C@@]24OO3`: “uptake into uninfected RBC” 3.1 ± 2 % stained cells (Plasmodium berghei; flow cytometry; infected mouse blood; 3 µM, 1 h).
For `O=C1CC[C@@]2(O)[C@H]3Cc4ccc(O)c5c4[C@@]2(CCN3CCc2ccccc2)[C@H]1O5`, “log k protonation constant” read 8.03 (phenolate site).
With `CC[C@H](C)[C@H](NC(=O)[C@H](CO)NC(=O)[C@H](Cc1ccc(O)cc1)NC(=O)[C@H](Cc1ccc(O)cc1)NC(=O)[C@H](CC(N)=O)NC(=O)CNC(=O)[C@H](CO)NC(=O)[C@H](Cc1ccc(O)cc1)NC(=O)[C@H](CO)NC(=O)[C@H](CO)NC(=O)[C@H](CC(N)=O)NC(=O)COCCOCCNC(=O)CN1CCN(CC(=O)O)CCN(CC(=O)O)CCN(CC(=O)O)CC1)C(=O)N[C@@H](CC(C)C)C(N)=O` [copper-64 labelled] the tissue uptake was 12.8 %ID/mL (dynamic PET; KPC mouse Ptf1a-CreER tdTomato, pancreas; intravenous, 4.6 MBq/mouse, 17.5 min, 84 d after tamoxifen).
For `CNC(=O)C1CCCN(C(=O)C2CC3CCC2N3C(=O)[C@@H]2C[C@@H](O)CN2C(=O)NCc2cccc(Cl)c2F)C1` (mixture of isomers), the remaining activity was 99.7% (CYP3A4 (human); inhibitor, time-dependent inhibition; 1.85 µM, preincubated without NADPH, with: midazolam substrate; relative to: negative control).
`CC(C)CC(C(=O)N1CC2(CC1C#N)C(=O)Nc1ccccc12)N(C)C(=O)c1cc2c(F)cc(F)c(F)c2[nH]1` (stereo not drawn) gave an IC50 of 4.7 µM and 4.68 µM (Caspase-9 (CASP9, Homo sapiens, UniProt P55211); enzyme activity, inhibitor).
`CC[C@H](C)[C@H](NC(=O)[C@H](CCCCN)NC(=O)[C@H](CCCCN)NC(=O)[C@H](Cc1ccccc1)NC(=O)[C@H](Cc1ccccc1)NC(=O)[C@H](CCCCN)NC(=O)[C@H](CCCCN)NC(=O)[C@H](Cc1ccccc1)NC(=O)[C@H](CCCNC(=N)N)NC(=O)[C@@H](N)CCCCN)C(=O)N[C@@H](CCCCN)C(=O)N[C@@H](CCCCN)C(=O)N[C@@H](CO)C(=O)N[C@H](C(=O)N[C@@H](CCCCN)C(=O)N[C@@H](CCCCN)C(=O)N[C@@H](CCCNC(=N)N)C(=O)N[C@H](C(=O)N[C@@H](CCCCN)C(=O)N[C@@H](CCCCN)C(=O)N[C@@H](CC(C)C)C(=O)N[C@@H](Cc1ccccc1)C(=O)N[C@@H](CCCCN)C(=O)N[C@@H](CCCCN)C(=O)N1CCC[C@H]1C(=O)N[C@@H](CCCNC(=N)N)C(=O)N[C@H](C(=O)N[C@H](C(=O)N1CCC[C@H]1C(=O)N[C@H](C(=O)N[C@@H](CO)C(=O)N[C@H](C(=O)N1CCC[C@H]1C(=O)N[C@@H](Cc1ccccc1)C(=O)O)[C@@H](C)CC)[C@@H](C)CC)[C@@H](C)CC)C(C)C)C(C)C)C(C)C` gave an MIC of 8 µg/mL (≈ 1.9 µM) (Escherichia coli; MIC after serum incubation; E24; 1 h, 37 °C, with: 25% mouse serum).
`Cc1ccc(NS(=O)(=O)c2c(C(=O)N3CCCCCC3)c(C)n(C)c2C)c(Cl)c1` gave a viability of 96.6% and 98.7% (HaCaT; 0.137 µM, 60 h).
`CC(=O)NCCCC[C@@H]1NC(=O)[C@H](Cc2c[nH]c3c(C)cccc23)NC(=O)[C@H]([C@@H](C)O)NC(=O)[C@H](CC(N)=O)NC(=O)[C@@H](NC(C)=O)C(C)(C)SSC(C)(C)[C@@H](C(=O)N[C@@H](Cc2ccc(OCCN)cc2)C(=O)N[C@@H](Cc2ccc3ccccc3c2)C(=O)NC2(C(=O)N[C@@H](CCC(=O)O)C(=O)N[C@@H](CC(N)=O)C(=O)N[C@@H](Cc3cccnc3)C(=O)N(C)CC(N)=O)CCOCC2)NC1=O` has an uptake rate of 0.154 ± 0.004 pmol/mg/min (Multidrug and toxin extrusion protein 1 (SLC47A1, Homo sapiens, UniProt Q96FL8); substrate; MDCK-II overexpressing transporter; 5 µM, 30 min).
For `CC(C)(C)C(=O)OCOP(=O)(OCOC(=O)C(C)(C)C)C1CCCN(O)C1=O` (stereo not drawn), the log GI50 was -5.82 log M (SF-539).
With `Cc1cc(-c2ccc3ccccc3c2)nnc1NCCN1CCN(C)CC1` the remaining compound was 81% (CYP1A2; substrate; recombinant enzyme; 100 nM, 1 h).
For `CC[C@H](C)[C@H](NC(=O)[C@H](CCCCN)NC(=O)CNC(=O)[C@H](CC(C)C)NC(=O)[C@H](Cc1ccccc1)NC(=O)[C@H](CCCCN)NC(=O)[C@H](CO)NC(=O)[C@H](Cc1ccccc1)NC(=O)[C@H](Cc1c[nH]c2ccccc12)NC(=O)[C@H](CCC(N)=O)NC(=O)[C@@H](NC(=O)[C@H](Cc1ccccc1)NC(=O)CCCCCNC(=O)CN1CCN(CC(=O)O)CCN(CC(=O)O)CCN(CC(=O)O)CC1)C(C)C)C(=O)N[C@@H](CCC(=O)O)C(=O)N1CCC[C@H]1C(=O)N[C@@H](CC(=O)O)C(=O)N[C@H](C(=O)N[C@@H](CO)C(=O)N[C@@H](CCC(N)=O)C(=O)N[C@H](C(=O)N[C@@H](CCC(N)=O)C(=O)N[C@@H](CC(=O)O)C(=O)N1CCC[C@H]1C(=O)N[C@@H](CC(N)=O)C(=O)N[C@@H](CC(=O)O)C(=O)N[C@@H](CCC(N)=O)C(=O)N[C@@H](Cc1ccc(O)cc1)C(=O)N[C@@H](CCC(=O)O)C(=O)N1CCC[C@H]1C(=O)N[C@@H](Cc1ccccc1)C(=O)O)C(C)C)C(C)C` [copper-64 labelled], the tissue uptake was 4.45 ± 1.1 %ID/g (C57BL/6 mice, large intestine; with: LPS 3 mg/kg intratracheal).
`Oc1ccc2c3c1OC1C(O)C=CC4C(C2)N(CC2CCC2)CCC341` (stereo not drawn): “log k amino protonation” 9.2.
With `NC[C@]1(CC(=O)O)CC[C@H]([18F])CC1` the SUV was 0.45 (PET; rhesus monkey, brain; intravenous, 9 min, baseline scan, after decrease).
For `C[C@H]1[C@@H](OCc2cn(-c3cc4ccc(O)cc4oc3=O)nn2)O[C@@H]2O[C@@]3(C)CC[C@H]4[C@H](C)CC[C@@H]1[C@@]24OO3`, the uptake inhibition was 71.5% (Plasmodium berghei; flow cytometry, item: compound uptake in uninfected red cells; uninfected mouse red blood cells; 3 µM, 1 h, with: dihydroartemisinin added 30 min before).
`O=C1NC(=O)c2c1c1cc(F)c[n+]3c1c1c2c2cc(O)ccc2[n]1[Ru-4]312([N]=C=S)[S+]3CC[S+]1CC[S+]2CC3` (stereo not drawn) has a remaining activity of 5% (Ribosomal protein S6 kinase alpha-1 (RPS6KA1, Homo sapiens, UniProt Q15418); enzyme activity; 100 nM, human enzyme, with: 10 µM ATP; relative to: untreated).
The AUC(0-t) of `Cc1sc2c(c1C)C(c1ccc(Cl)cc1)=N[C@@H](CC(=O)OC(C)(C)C)c1nnc(C)n1-2` is reported as 2040 ng·h/mL (CD1 mouse, male, plasma; oral, 10 mg/kg).
For `COc1ccc(-n2cc(C(=O)N3C[C@]4(OC(=O)c5ccccc5NC(C)=O)CC[C@H](OC)[C@@]56[C@@H]4C[C@@H]([C@@H]35)[C@@]3(O)C[C@H](OC)[C@H]4C[C@@H]6[C@]3(O)[C@H]4OC)nn2)cc1`, the concentration was 13.8 ng/mL (Sprague-Dawley rat, plasma; intravenous, 2 mg/kg, 1 h).
`CCCC[C@H](NC(=O)CN1CCC(NC(=O)CN2CCN(CC(N)=O)CCN(CC(N)=O)CCN(CC(N)=O)CC2)CC1)C(=O)N[C@H]1CC(=O)NCCCC[C@@H](C(N)=O)NC(=O)[C@H](Cc2c[nH]c3ccccc23)NC(=O)[C@H](CCCNC(=N)N)NC(=O)[C@@H](Cc2ccccc2)NC(=O)[C@H](Cc2c[nH]cn2)NC1=O` [lead-212 labelled] has a tissue uptake of 0.79 ± 0.05 %IA/g (male C57BL/6J mice, B16-F10 tumour, bone; intravenous, 20 pmol, 2 h, ex vivo).
`CN(C)[C@H]1C[C@@]23CC[C@@]4(O2)C(=CC[C@]2(C)[C@@H](c5ccc6ccncc6c5)CC[C@H]24)C=C3[C@@H](O)[C@@H]1O` has an inhibition of -0.6% (Calcium/calmodulin-dependent protein kinase type 1B (PNCK, Homo sapiens, UniProt Q6P2M8); ATP probe labelling, inhibitor, KiNativ profiling; 1 µM).
`COc1ccccc1-c1n[nH]c2nc(N[C@H]3CC[C@H](NS(=O)(=O)CC(C)C)CC3)ncc12` gave a relative abundance of 0.46 (bead binding, competition bead pull-down, item: LINJ.09.0270; Leishmania donovani extract; 10 µM; relative to: vehicle).
For `N[C@H](C(=O)N1CCCC1)C1CCN(c2nccc3c(-c4ncc(Cl)cc4Cl)cccc23)CC1`, the inhibition was 32.5% (Calcium/calmodulin-dependent protein kinase type II subunit alpha (CAMK2A, Homo sapiens, UniProt Q9UQM7); kinase activity, inhibitor; 10 µM, with: ATP 1 mM).
`O=C1CC[C@@]2(O)[C@H]3Cc4ccc(O)c5c4[C@@]2(CCN3CC2CCC2)[C@H]1O5`: “log k amino protonation” 9.02 (phenolate protonated).
`COc1ccccc1-c1n[nH]c2nc(NC3CCN(C(=O)Cc4ccc(F)cc4F)CC3)ncc12` gave a relative abundance of 0.84 (bead binding, competition bead pull-down, item: LINJ.34.0720; Leishmania donovani extract; 10 µM; relative to: vehicle).
With `CCc1nnc(NS(=O)(=O)c2ccc(NC(=O)c3cccc4ccccc34)cc2)s1` the inhibition was less than 10% (CYP1A2; 10 µM).
With `COc1cc2c(cc1NC(=O)c1cncn1C)C[C@H]1[C@H]3CCCC[C@@]23CCN1C` the half-life was roughly 2 h (C57BL/6 mouse, plasma; oral).
Under “log k amino protonation”, `CN1CC[C@]23c4c5ccc(O)c4O[C@H]2[C@H](O)C=C[C@@]3(O)[C@H]1C5` is recorded as 9.07 (phenolate protonated).
`CN1Cc2cc(Cl)ccc2-n2c(nnc2C2CCN(c3cccc(F)n3)CC2)C1` gave a concentration of 1.07 ng/mL (mass spectrometry; male Sprague-Dawley rat, brain; intravenous, 0.03 mg/kg, 1 h, single dose).
For `CN1CC[C@]23c4c5ccc(O)c4O[C@H]2[C@H](O)C=C[C@H]3[C@H]1C5`, “log k protonation constant” read 9.34 (phenolate site).
`Cc1cc(C(=O)Nc2nc3cccc(C)c3n2[C@H]2CCCCN(C(=O)/C=C/CN(C)C)C2)ccn1` has a multinucleated cells of 7.73% (Trypanosoma brucei; propidium iodide flow cytometry; bloodstream form; concentration not given, 6 h).
`CN1CC[C@]23c4c5ccc(O)c4O[C@H]2[C@H](O)CC[C@@]3(O)[C@H]1C5`: “log tautomerization constant” 0.86.
`Cc1nc2cccc(OCC(C)(C)C(=O)NC(C)C)c2c(N)c1C(=O)[O-].[Na+]`: “revertant colonies per plate” 156 ± 3 (Salmonella typhimurium; TA100; 0.13 mg per plate, without S9, plate incorporation).
`O=C1CC[C@H]2[C@H]3Cc4ccc(O)c5c4[C@@]2(CCN3CCc2ccccc2)[C@H]1O5`: “log tautomerization constant” 2.
With `CS(C)(=O)=Nc1ccc(-c2ccc(-c3nc4cc(O[C@@H]5CO[C@H]6[C@@H]5OC[C@H]6O)[nH]c4cc3F)cc2)cc1` the inhibition was 1% (Leucine-rich repeat serine/threonine-protein kinase 2 (LRRK2, Homo sapiens, UniProt Q5S007); enzyme activity, inhibitor; 10 µM).

For quick reference, copied from above:
`O=C1NC(=O)c2c1c1cc(F)c[n+]3c1c1c2c2cc(O)ccc2[n]1[Ru-4]312([N]=C=S)[S+]3CC[S+]1CC[S+]2CC3` (stereo not drawn) has a remaining activity of 5% (Ribosomal protein S6 kinase alpha-1 (RPS6KA1, Homo sapiens, UniProt Q15418); enzyme activity; 100 nM, human enzyme, with: 10 µM ATP; relative to: untreated).
`CC(=O)NCCCC[C@@H]1NC(=O)[C@H](Cc2c[nH]c3c(C)cccc23)NC(=O)[C@H]([C@@H](C)O)NC(=O)[C@H](CC(N)=O)NC(=O)[C@@H](NC(C)=O)C(C)(C)SSC(C)(C)[C@@H](C(=O)N[C@@H](Cc2ccc(OCCN)cc2)C(=O)N[C@@H](Cc2ccc3ccccc3c2)C(=O)NC2(C(=O)N[C@@H](CCC(=O)O)C(=O)N[C@@H](CC(N)=O)C(=O)N[C@@H](Cc3cccnc3)C(=O)N(C)CC(N)=O)CCOCC2)NC1=O` has an uptake rate of 0.154 ± 0.004 pmol/mg/min (Multidrug and toxin extrusion protein 1 (SLC47A1, Homo sapiens, UniProt Q96FL8); substrate; MDCK-II overexpressing transporter; 5 µM, 30 min).
For `O=C1NC2(CC2)COc2ncc(F)cc2[C@H]2COCCN2c2ccn3ncc1c3n2`, the potassium was 4.21 ± 0.47 mmol/L (Sprague-Dawley rat, female, serum; oral, 10 mg/kg/day, 4 weeks daily, end of treatment).
`CN(C)c1ccc(-c2nc3ccccc3n2CCCOc2ccccc2)cc1` has an IC50 of greater than 10 µM (HEK-293T; cytotoxicity; 3 days).
